Results of several laboratories.
A part holds a random share of what one study measured. Positions count from the first letter of the parent shown.

Series 1
Target: ABI1, truncated, D143A, DHFR fusion (Arabidopsis thaliana)
Technique: DHFR PCA, deep sequencing
Matrix: yeast
Setting: methotrexate growth selection, single substitutions
Together with: (+)-ABA 200 µM
Baseline: wild-type fitted maximum
Direction: higher = stronger binding
Parent: PYL1, truncated, DHFR fusion (Arabidopsis thaliana); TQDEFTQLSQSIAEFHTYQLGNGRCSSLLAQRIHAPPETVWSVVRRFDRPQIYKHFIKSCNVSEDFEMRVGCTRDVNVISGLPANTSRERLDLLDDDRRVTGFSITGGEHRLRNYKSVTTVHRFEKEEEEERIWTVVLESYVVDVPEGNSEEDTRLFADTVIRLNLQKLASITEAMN; partner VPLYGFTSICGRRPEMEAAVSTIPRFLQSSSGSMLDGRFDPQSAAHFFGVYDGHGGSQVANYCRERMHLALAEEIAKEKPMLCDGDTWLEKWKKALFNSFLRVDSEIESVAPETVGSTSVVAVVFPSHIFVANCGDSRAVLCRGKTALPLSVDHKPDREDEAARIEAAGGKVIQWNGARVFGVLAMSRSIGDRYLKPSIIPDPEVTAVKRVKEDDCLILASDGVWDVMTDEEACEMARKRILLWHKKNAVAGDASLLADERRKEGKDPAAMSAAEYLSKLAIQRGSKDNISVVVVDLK
Substitution | relative binding score [%]
V137K | -3.07
G148N | 87.9
T17A | 88.6
R49H | 97.4
M176H | 94
C25V | 102
T39G | 83.4
Q31M | 73.8

Series 2
Target: Centromere-binding protein 1, full length, His-tagged (CBF1, Saccharomyces cerevisiae, UniProt P17106, residues 1-351)
Sequence of UniProt P17106 (whole entry, looked up): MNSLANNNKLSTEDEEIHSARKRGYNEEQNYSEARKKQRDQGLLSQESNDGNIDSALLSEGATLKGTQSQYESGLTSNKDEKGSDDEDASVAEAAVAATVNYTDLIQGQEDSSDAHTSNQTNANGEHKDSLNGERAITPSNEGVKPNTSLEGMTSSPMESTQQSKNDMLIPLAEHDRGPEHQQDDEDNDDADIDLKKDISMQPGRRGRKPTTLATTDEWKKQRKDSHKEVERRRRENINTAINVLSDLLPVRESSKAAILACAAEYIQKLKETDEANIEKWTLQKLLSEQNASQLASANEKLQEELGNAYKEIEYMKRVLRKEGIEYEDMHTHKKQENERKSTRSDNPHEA
Technique: competition protein-binding microarray
Molecule type: double-stranded DNA, one strand shown
Matrix: in vitro
Tested at: 2 µM
Setting: whole 60-bp probe, lowest competitor level
Together with: Pho4 competitor, 0.05 µM
Direction: higher = stronger binding
Sequence | fluorescence intensity [a.u.]
AAAGCGGTAATTTGCCATGTGGGTGCAGATATCTATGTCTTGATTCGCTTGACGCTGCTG | 109
TATTGCGGTTGTTGCCACGCTTGTCGCCAGGGTTGTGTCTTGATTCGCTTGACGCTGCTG | 56.5
AAGGGCCAATTCGGCCATGTGTGAGTAAGATCGCAAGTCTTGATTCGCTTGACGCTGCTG | 86.8
TGATTGAAAACCAACAATGTGACAGTGAAAACAACAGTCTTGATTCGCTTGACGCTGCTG | 154
TTCTGCGCAGAGAAAGGCGTGCAAAGTCCGTTTGACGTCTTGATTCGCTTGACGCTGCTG | 66.7
AAGGAAACTATAAAGCACGCAATTCCCTATTTGGTTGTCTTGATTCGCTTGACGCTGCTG | 84.3
AAGAACCCGATATCGCACGCTTCTCCAGGGGTCGGTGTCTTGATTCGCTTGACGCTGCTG | 56.6
CGTCCTAGTGATTGCTTGGTGGGTGCCATGAGGAAGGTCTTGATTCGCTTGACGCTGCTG | 74.6
TTTGCAGTGTAATCTCACGTGCAAAAGACTGAGTAAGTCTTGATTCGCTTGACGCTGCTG | 1350
AACGCCGTCCGTAACCATATGATTCACAATTTGATCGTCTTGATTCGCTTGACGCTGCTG | 126
CTGGCCCACTTCATGGGCGTGCTAATCAAGAAGTACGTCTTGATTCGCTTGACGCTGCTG | 85.6
GTCTTGTCTCATTGGAGCGTGGGTGTCCCCACTTCAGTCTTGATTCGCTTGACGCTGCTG | 73.3

Series 3
Target: Ras GTPase-activating protein-binding protein 1, RRM domain (G3BP1, Homo sapiens, UniProt Q13283)
Sequence of UniProt Q13283 (whole entry, looked up): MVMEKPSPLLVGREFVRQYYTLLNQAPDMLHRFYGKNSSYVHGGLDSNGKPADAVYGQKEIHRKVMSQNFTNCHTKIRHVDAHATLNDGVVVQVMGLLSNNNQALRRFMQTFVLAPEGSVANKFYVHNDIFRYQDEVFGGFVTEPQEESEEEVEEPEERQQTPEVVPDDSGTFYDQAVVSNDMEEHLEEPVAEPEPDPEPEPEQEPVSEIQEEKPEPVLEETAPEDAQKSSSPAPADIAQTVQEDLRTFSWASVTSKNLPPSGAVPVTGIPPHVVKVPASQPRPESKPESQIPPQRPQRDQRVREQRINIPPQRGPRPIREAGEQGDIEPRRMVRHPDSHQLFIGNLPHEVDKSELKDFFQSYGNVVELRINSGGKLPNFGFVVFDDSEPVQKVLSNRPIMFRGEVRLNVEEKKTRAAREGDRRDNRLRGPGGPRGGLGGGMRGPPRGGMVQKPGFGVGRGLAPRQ
Technique: RNA Bind-n-Seq
Molecule type: RNA
Matrix: in vitro
Tested at: 1 µM
Setting: whole 134-nt RNA, ends assumed
Together with: 150 mM KCl
Baseline: input library
Direction: higher = stronger binding
Sequence | log2 enrichment
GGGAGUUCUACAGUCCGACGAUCGUCCUGUGCUACACAUCGUAUGUACCGAAUCAAACCCAAAUUUUUAAAUUUUUUUAAAAAAGUAUUAUGUUACGCCGUUCGGAUCUGCACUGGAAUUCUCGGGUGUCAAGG | -0.911
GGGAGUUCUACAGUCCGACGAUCUAACUUUAGAGGAGGAUCUGAUGGAUAUGGCAGUGGACGUGGAUUUGGGGAUGGCUAUAAUGGGUAUGGAGGAGGACCUGGAGAUGGCAAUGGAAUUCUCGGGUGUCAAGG | -0.446
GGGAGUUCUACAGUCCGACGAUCGCAGGAAGUAAAAACAAAUGGAAAUGCUUCGGAUAGUGGCAGGGGUGGGGGUUGCUAAGGAAAGGGUGGGAUGGGAGUGGGUAAAGUGUUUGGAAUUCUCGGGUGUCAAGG | 0.598
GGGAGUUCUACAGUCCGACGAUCCUGUGCUACACAUCGUAUGUACCGAAUCGGGCCCCCCCGGGCCCCCCCGGGCCCCCCCGGGAAAGUAUUAUGUUACGCCGUUCGGAUCUGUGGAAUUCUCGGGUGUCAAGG | -0.525
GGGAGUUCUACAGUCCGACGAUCUGGGAGGUGGAUUUUGUUUAUUUUUUUAGCUCAUUUCCAGGGGUGGGACUUUUUUUUUAAUAUGUGUCAUGAAUAAAGUUGUUUUUGAAAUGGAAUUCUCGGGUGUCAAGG | 1.72
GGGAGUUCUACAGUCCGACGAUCGCAGGAAGUAAAAACAGAUGGAAAUGCUUCGGAUAGUGGCAGGGGUGGGGGUUGCUAAGGAAAGGGUGGGAUGGGAGUGGGUAAAGAGUUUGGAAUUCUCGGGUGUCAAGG | 0.904
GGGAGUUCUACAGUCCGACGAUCACCAUGCAGGUGGGCAUCUUUGGGAAAUGGGGCAAGGGGGGGAUAGGGAGGGGGGUAACACUUUGGGAACAGGUGGUCCCAGGUCGUUUCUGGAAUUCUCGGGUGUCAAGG | -0.333
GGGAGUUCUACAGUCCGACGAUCCACAGACAACACGCGCCCACACAGACACAGAGGGAAGGGGUUGGGAUGGGGACAGGGUGCACAGCAGGGCGGGGUAGGACCCCAGCCCCUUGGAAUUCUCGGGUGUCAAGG | 0.175
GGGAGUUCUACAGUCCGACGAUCUAACUUUAGAGGAGGAUCUGAUGGAUAUGGCAGUGGACGUGGAUUUGGGGAUGGCUAUAAUGGGUAUGGAGGAGGACCUGAAGGUGGCAAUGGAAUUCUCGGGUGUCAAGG | -0.442
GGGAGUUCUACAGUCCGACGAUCAGUCCUGUGCUACACAUCGUAUGUACCGAAUCGGGGAAAGGGGUUUUUGGGGUGGGGAAAGUAUUAUGUUACGCCGUUCGGAUCUGCACUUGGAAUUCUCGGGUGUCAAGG | 0.995

Further values, each from its own experiment
Substance | target | test | system | setting | how to read | quantity | result
PhoQ, residues 284 288 289 292 302 303 TNASYF | PhoP, residues 12 14 15 18 19 NFCKL (Escherichia coli, UniProt P23836) | Sort-seq, item: YFP reporter | E. coli | PhoQ-PhoP variant library, together with: 10 µM Mg2+ | baseline: high Mg2+ state, higher = stronger signaling | fold induction | 10.8
